{"data": "Measurements collected from several papers"}
{"Compound": "N=C(N)NCCC[C@H](NC(=O)CN)C(=O)N[C@@H](Cc1c[nH]c2ccccc12)C(=O)N[C@@H](CCCNC(=N)N)C(=O)N[C@@H](Cc1c[nH]c2ccccc12)C(=O)N[C@@H](Cc1c[nH]c2ccccc12)C(=O)N[C@@H](Cc1c[nH]c2ccccc12)C(=O)N[C@@H](CCCNC(=N)N)C(=O)N[C@@H](Cc1c[nH]c2ccccc12)C(=O)N[C@@H](CCCNC(=N)N)C(=O)N[C@@H](Cc1c[nH]c2ccccc12)C(N)=O", "organism": "Candida albicans", "test": "broth microdilution", "test system": "56452, RPMI 1640-MOPS", "conditions": "48 h, 30 °C", "MIC": "8 µM"}
{"Compound": "CC(C)C[C@H](NC(=O)CNC(=O)CNC(=O)CNC(=O)[C@H](Cc1ccc(O)cc1)NC(=O)[C@H](CC(C)C)NC(=O)[C@@H](NC(=O)CNC(=O)[C@H](Cc1ccc(O)cc1)NC(=O)[C@H](CCCCN)NC(=O)[C@H](CC(N)=O)NC(=O)[C@@H](NC(=O)[C@H](CCCCN)NC(=O)[C@H](Cc1c[nH]c2ccccc12)NC(=O)CN)[C@@H](C)O)[C@@H](C)O)C(=O)N[C@@H](CCCCN)C(=O)N[C@@H](CCCCN)C(=O)N[C@@H](CC(C)C)C(=O)N[C@@H](CC(C)C)C(=O)N[C@@H](CC(C)C)C(=O)N[C@@H](CC(C)C)C(=O)N[C@@H](CC(C)C)C(=O)N[C@@H](CCCCN)C(=O)N[C@@H](CCCCN)C(=O)N[C@@H](CC(C)C)C(=O)NCC(=O)O", "organism": "Staphylococcus aureus", "test system": "USA300", "conditions": "together with: 8 µM ZnCl2", "MIC": "32 µg/mL"}
{"Compound": "CC[C@H](C)[C@H](NC(=O)[C@H](CCCCN)NC(=O)[C@@H](NC(=O)[C@H](Cc1ccc(O)cc1)NC(=O)[C@H](CCCCN)NC(=O)[C@H](CCCCN)NC(=O)CNC(=O)[C@H](CCCCN)NC(=O)[C@@H](NC(=O)[C@H](C)NC(=O)[C@H](CC(C)C)NC(=O)[C@H](Cc1c[nH]c2ccccc12)NC(=O)CNC(=O)[C@@H](NC(=O)[C@H](Cc1ccccc1)NC(=O)[C@H](CCCCN)NC(=O)[C@H](CC(C)C)NC(=O)[C@H](Cc1ccccc1)NC(=O)[C@H](C)NC(=O)CNC(=O)[C@@H](N)CCSC)C(C)C)[C@@H](C)O)C(C)C)C(=O)N[C@@H](C)C(=O)N[C@@H](Cc1c[nH]c2ccccc12)C(=O)N[C@@H](CC(=O)O)C(=O)N[C@@H](Cc1c[nH]cn1)C(=O)N[C@@H](CCCCN)C(=O)NCC(=O)N[C@H](C(=O)N[C@H](C(=O)N[C@@H](CCSC)C(=O)N[C@@H](CCCCN)C(=O)N[C@@H](Cc1c[nH]c2ccccc12)C(=O)N[C@@H](CC(C)C)C(=O)N[C@@H](CC(N)=O)C(=O)N[C@@H](C)C(=O)NCC(=O)N[C@@H](CCC(N)=O)C(=O)N[C@H](C(=O)N[C@@H](Cc1ccccc1)C(=O)N[C@H](C(=O)N[C@@H](Cc1c[nH]c2ccccc12)C(=O)N[C@H](C(=O)N[C@@H](Cc1ccc(O)cc1)C(=O)N[C@@H](CCC(=O)O)C(=O)N[C@@H](CCC(N)=O)C(=O)N[C@H](C(=O)N[C@@H](CCCCN)C(=O)N[C@@H](CCCCN)C(=O)N[C@@H](CC(C)C)C(=O)N[C@@H](Cc1c[nH]c2ccccc12)C(=O)N[C@H](C(=O)O)[C@@H](C)O)[C@@H](C)CC)C(C)C)[C@@H](C)O)[C@@H](C)O)[C@@H](C)CC)[C@@H](C)O", "organism": "Staphylococcus epidermidis", "test": "broth microdilution", "conditions": "37 °C", "MIC": "15.6 µg/mL"}
{"Compound": "CC(C)C[C@H](NC(=O)[C@H](CCCNC(=N)N)NC(=O)[C@H](Cc1c[nH]c2ccccc12)NC(=O)[C@H](CCCNC(=N)N)NC(=O)[C@H](Cc1c[nH]c2ccccc12)NC(=O)[C@H](Cc1c[nH]c2ccccc12)NC(=O)[C@H](Cc1c[nH]c2ccccc12)NC(=O)[C@H](CCCNC(=N)N)NC(=O)[C@H](Cc1c[nH]c2ccccc12)NC(=O)[C@@H](N)CCCNC(=N)N)C(N)=O", "organism": "Candida albicans", "test": "broth microdilution", "test system": "56452, RPMI 1640-MOPS", "conditions": "48 h, 30 °C", "MIC": "8 µM"}
{"Compound": "CC[C@H](C)[C@H](NC(=O)[C@H](C)NC(=O)[C@H](CCCCN)NC(=O)[C@H](CC(C)C)NC(=O)[C@H](C)NC(=O)[C@@H](NC(=O)[C@H](Cc1c[nH]cn1)NC(=O)[C@H](CC(C)C)NC(=O)[C@@H](NC(=O)[C@@H](NC(=O)[C@H](CCCCN)NC(=O)[C@H](C)NC(=O)[C@H](C)NC(=O)[C@H](CO)NC(=O)[C@H](CCCCN)NC(=O)[C@H](Cc1ccccc1)NC(=O)[C@@H](NC(=O)[C@H](CCCCN)NC(=O)[C@H](CC(C)C)NC(=O)[C@H](Cc1ccccc1)NC(=O)[C@H](CO)NC(=O)[C@H](CCCCN)NC(=O)[C@H](Cc1c[nH]c2ccccc12)NC(=O)[C@H](CCCCN)NC(C)=O)[C@@H](C)O)[C@@H](C)O)C(C)C)[C@@H](C)O)C(=O)N[C@@H](CO)C(=O)N[C@@H](CO)C(N)=O", "organism": "Enterobacter cloacae", "conditions": "range over strains", "MIC": "4 µg/mL"}
{"Compound": "CC(C)[C@H](NC(=O)[C@H](CCCNC(=N)N)NC(=O)[C@H](Cc1c[nH]c2ccccc12)NC(=O)[C@H](CCCNC(=N)N)NC(=O)[C@H](Cc1c[nH]c2ccccc12)NC(=O)[C@H](Cc1c[nH]c2ccccc12)NC(=O)[C@H](Cc1c[nH]c2ccccc12)NC(=O)[C@H](CCCNC(=N)N)NC(=O)[C@H](Cc1c[nH]c2ccccc12)NC(=O)[C@@H](N)CCCNC(=N)N)C(N)=O", "organism": "Candida albicans", "test": "broth microdilution", "test system": "CGMCC 2.209, RPMI 1640-MOPS", "conditions": "48 h, 30 °C, together with: CaCl2 2 mM", "MIC": "64 µM"}
{"Compound": "CC[C@H](C)[C@H](N)C(=O)N[C@@H](CC(C)C)C(=O)N1CCC[C@H]1C(=O)N[C@@H](Cc1c[nH]c2ccccc12)C(=O)N[C@@H](CCCCN)C(=O)N[C@@H](Cc1c[nH]c2ccccc12)C(=O)N1CCC[C@H]1C(=O)N[C@@H](Cc1c[nH]c2ccccc12)C(=O)N[C@@H](Cc1c[nH]c2ccccc12)C(=O)N1CCC[C@H]1C(=O)N[C@@H](Cc1c[nH]c2ccccc12)C(=O)N[C@@H](CCCNC(=N)N)C(=O)N[C@@H](CCCNC(=N)N)C(N)=O", "organism": "Staphylococcus epidermidis", "test": "broth dilution", "test system": "ATCC 51625", "conditions": "18 h, 37 °C", "MIC": "10.5 µM"}
{"Compound": "C[C@@H](O)[C@H]1C(=O)N2C(C(=O)O)=C(SCCN=CN)C[C@H]12", "organism": "Klebsiella pneumoniae", "test system": "K3", "conditions": "after induction, together with: ceftazidime-avibactam, avibactam fixed", "MIC": "32 µg/mL"}
{"Compound": "CC(C)[C@H](NC(=O)[C@H](CCCNC(=N)N)NC(=O)[C@H](Cc1c[nH]c2ccccc12)NC(=O)[C@H](CCCNC(=N)N)NC(=O)[C@H](Cc1c[nH]c2ccccc12)NC(=O)[C@H](Cc1c[nH]c2ccccc12)NC(=O)[C@H](Cc1c[nH]c2ccccc12)NC(=O)[C@H](CCCNC(=N)N)NC(=O)[C@H](Cc1c[nH]c2ccccc12)NC(=O)[C@H](CCCNC(=N)N)NC(=O)CN)C(N)=O", "organism": "Candida albicans", "test": "broth microdilution", "test system": "SP3931, RPMI 1640-MOPS", "conditions": "48 h, 30 °C", "MIC": "8 µM"}
{"Compound": "CC(C)C[C@@H]1NC(=O)[C@H](Cc2ccccc2)NC(=O)[C@H](Cc2ccc(O)cc2)NC(=O)[C@H](CC(C)C)NC(=O)[C@H](CCC(=O)O)NC(=O)[C@H](Cc2ccccc2)NC(=O)[C@H](CCCNC(=N)N)NC(=O)[C@H](CCC(N)=O)NC(=O)[C@H](CC(C)C)NC(=O)[C@H](CC(=O)O)NC(=O)[C@@H]2CCCN2C(=O)[C@H](CCCCN)NC(=O)[C@H](C(C)C)NC(=O)[C@H](CC(N)=O)NC(=O)[C@H](Cc2ccc(O)cc2)NC(=O)[C@H]([C@@H](C)O)NC(=O)[C@@H](N)CSSC[C@@H](C(=O)O)NC(=O)[C@H]([C@@H](C)O)NC(=O)[C@H](C(C)C)NC(=O)[C@H]([C@@H](C)O)NC(=O)CNC1=O", "organism": "Pseudomonas fluorescens", "test": "broth dilution", "test system": "CGMCC strain", "conditions": "24 h", "MIC": "> 40 µM"}
{"Compound": "CC(C)C[C@H](NC(=O)[C@H](Cc1c[nH]c2ccccc12)NC(=O)[C@H](CC(C)C)NC(=O)[C@@H](NC(=O)[C@H](CC(C)C)NC(=O)[C@H](CCCNC(=N)N)NC(=O)[C@@H](N)CCCNC(=N)N)[C@@H](C)O)C(=O)N[C@H](C(=O)N[C@@H](CC(C)C)C(=O)N[C@@H](CCCNC(=N)N)C(=O)N[C@@H](CCCNC(=N)N)C(N)=O)[C@@H](C)O", "organism": "Candida parapsilosis", "test system": "CGMCC 2.399", "conditions": "48 h, 37 °C", "MIC": "4 µM"}
{"Compound": "CC[C@H](C)C[C@H](C)CCCCCCCCC(=O)N[C@H]1C[C@@H](O)[C@@H](NCCN)NC(=O)[C@@H]2[C@@H](O)CCN2C(=O)[C@H]([C@H](O)CCN)NC(=O)[C@H]([C@H](O)[C@@H](O)c2ccc(O)cc2)NC(=O)[C@@H]2C[C@@H](O)CN2C(=O)[C@H]([C@@H](C)O)NC1=O", "organism": "Clavispora lusitaniae", "test": "broth dilution", "test system": "ATCC 34449", "conditions": "48 h, 37 °C", "MIC": "1 µg/mL"}
{"Compound": "CC(C)(CN)CNCc1nc2ccccc2n1CCOc1ccccc1", "organism": "Gram-negative bacteria panel", "MIC": "16 to 64 µg/mL"}
{"Compound": "CC[C@H](C)[C@H](NC(=O)CN)C(=O)NCC(=O)N[C@@H](CCCCN)C(=O)N[C@@H](Cc1ccccc1)C(=O)N[C@@H](CC(C)C)C(=O)N[C@@H](CCCCN)C(=O)N[C@@H](CCCCN)C(=O)N[C@@H](C)C(=O)N[C@@H](CCCCN)C(=O)N[C@@H](CCCCN)C(=O)N[C@@H](Cc1ccccc1)C(=O)NCC(=O)N[C@@H](CCCCN)C(=O)N[C@@H](C)C(=O)N[C@@H](Cc1ccccc1)C(=O)N[C@H](C(=O)N[C@@H](CCCCN)C(=O)N[C@H](C(=O)N[C@@H](CC(C)C)C(=O)N[C@@H](CCCCN)C(=O)N[C@@H](CCCCN)C(N)=O)[C@@H](C)CC)C(C)C", "organism": "Staphylococcus epidermidis", "test": "broth dilution", "test system": "KCTC 1917", "MIC": "3.1 µM"}
{"Compound": "CC[C@H](C)[C@H](NC(=O)[C@H](Cc1c[nH]c2ccccc12)NC(=O)[C@@H](NC(=O)[C@@H](NC(=O)[C@@H](NC(=O)[C@H](CCCNC(=N)N)NC(=O)[C@@H](N)CCCNC(=N)N)[C@@H](C)CC)[C@@H](C)O)[C@@H](C)CC)C(=O)N[C@H](C(=O)N[C@H](C(=O)N[C@@H](CCCNC(=N)N)C(=O)N[C@@H](CCCNC(=N)N)C(N)=O)[C@@H](C)CC)[C@@H](C)O", "organism": "Candida parapsilosis", "test system": "CGMCC 2.399", "conditions": "48 h, 37 °C", "MIC": "2 µM"}
{"note": "Some of these lines once more:"}
{"Compound": "CC[C@H](C)[C@H](NC(=O)CN)C(=O)NCC(=O)N[C@@H](CCCCN)C(=O)N[C@@H](Cc1ccccc1)C(=O)N[C@@H](CC(C)C)C(=O)N[C@@H](CCCCN)C(=O)N[C@@H](CCCCN)C(=O)N[C@@H](C)C(=O)N[C@@H](CCCCN)C(=O)N[C@@H](CCCCN)C(=O)N[C@@H](Cc1ccccc1)C(=O)NCC(=O)N[C@@H](CCCCN)C(=O)N[C@@H](C)C(=O)N[C@@H](Cc1ccccc1)C(=O)N[C@H](C(=O)N[C@@H](CCCCN)C(=O)N[C@H](C(=O)N[C@@H](CC(C)C)C(=O)N[C@@H](CCCCN)C(=O)N[C@@H](CCCCN)C(N)=O)[C@@H](C)CC)C(C)C", "organism": "Staphylococcus epidermidis", "test": "broth dilution", "test system": "KCTC 1917", "MIC": "3.1 µM"}
